Measured values gathered from unrelated publications.
Each numbered part is a random draw from the data of one study; scales do not carry over between parts. Changes are numbered by the printed parent chain.

Block 1
Target: RING finger protein unkempt homolog, zinc fingers 1-6, GST-SBP tag (UNK, Homo sapiens, UniProt Q9C0B0, residues 30-357)
Technique: RNA Bind-n-Seq
Form: RNA
Matrix: in vitro
Concentration: not given
Setting: RNA with constant flanks, human and mouse sites, ends assumed
Relative to: input RNA pool
Direction: higher = stronger binding
Endpoint: bound/input enrichment
Constant ends, left off below: GGGAGUUCUACAGUCCGACGAUC … CAACAGAGGAUUGAGCAUCA
Construct (chain): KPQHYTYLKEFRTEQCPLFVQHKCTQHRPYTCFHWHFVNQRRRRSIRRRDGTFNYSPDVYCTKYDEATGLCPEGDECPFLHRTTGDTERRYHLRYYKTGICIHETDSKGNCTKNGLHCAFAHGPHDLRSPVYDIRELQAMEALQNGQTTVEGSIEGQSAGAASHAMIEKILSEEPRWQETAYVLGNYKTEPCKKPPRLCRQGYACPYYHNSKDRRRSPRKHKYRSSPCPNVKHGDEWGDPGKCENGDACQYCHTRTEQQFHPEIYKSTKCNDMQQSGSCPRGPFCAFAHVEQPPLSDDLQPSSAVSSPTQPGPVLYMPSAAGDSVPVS
UCUGAUAGGAAUAUAGUACUGUAUGAUAUGCGGCAAGCUACUCCUUUGAAAAAGGUUAUCCUGGAAAUGAGGACAAAUACAAUCUGUUGGAACCCUAUGGAAGCUUUCAAUUUUACUGCA: 0.336 ratio
AGGGAUAAAGUAAUUCCUAAUAAAGUGGGGACAUAUUGUAUCCAGUUUGGUUUUAUGAUGGAUAAAACAAAUAUUCUCAACAGUGAACAGGUUAUAGUUGAAGUCCUGCCUAAUCAACCU: 0.0943 ratio
UGUUUCCCUUUGUGGGUGGGUUCCUACAGCGCUCGUUCUAGAACACAAGUGGAUCCUUUUUGAAUGUUCAUGGAAGGGCCAGGAGUUCUGUACAGCCAGGACCCUGCAGCUUUAUUAAAG: 0.168 ratio
ACAUUUAAGGAUUUUGUUCUUCAUCCAAGAAGUCACAAAUCAAGAGUUAAAGGUUAUCUGAGAUUAAAAAUGACUUAUUUACCUAAAAAUGGCUCAGAAGAUGAAAAUGCAGACCAGGCU: 0.214 ratio
GAGGAAGAGGAGGAGGAGAGCCCCGACACAGGUGGAGAAUAUAAAUAUUCAGGAAGAGAUAGCUUGAUUUUUCUGGUUGAUGCCUCCAGGGCUAUGUUCGAAUCUCAGGGUGAAGAUGAA: 0.439 ratio
CUAGCAGAGAUAACCCUUGAUCCUCCUCCUAACUGCAGUGCUGGGCCUAAAGGAGAUAACAUUUAUGAAUGGAGGUCAACUAUACUUGGUCCACCAGGUUCUGUAUAUGAAGGUGGUGUU: 0.343 ratio
UUGGAAUUAAUAAAGCAGUUGACAUUCACUGUUAGUUACAGCAACAUACUGUGAUUUUUAAUUAGAUAGUAAUUCAGAUUUAUUACUCUAUGAAAUUCUGUCUUUUGACACCAUAGUGCC: 0.725 ratio
GAAGUAUUUGACGCUUUAAAGUUAGACUCUAUGGAAAGCUCGGAGACGUCAUGUCGAGACCUGUCCAGCUCACCCCCUGGGCCUUACGGUCAAGAAAUGUAUGUGUUUCGAUCUGAGGAG: 0.0403 ratio
AAUAUGGCAACUUUGAAAGAUAUCACCAGGAGACUAAAGUCCAUCAAAAACAUCCAGAAAAUUACCAAGUCUAUGAAAAUGGUAGCGGCAGCAAAAUAUGCCCGAGCUGAGAGAGAGCUG: 0.343 ratio
GAUAAACUUGAAGCAGACAGAUCAUGGGAAAAUAUUCCUGUUACUUUCAAAUCUCCUGUUCCCGUUAACUCUGAUGAUAGUCCUCAACAAACUUCAAGGGCAAAGAGUGCUAAAGGGGUU: 0.239 ratio
AAGAUGUCAGGAUGAAUUGUCAAAUGUAUGGCUCUGUGUGUGCGAGGUGUGUGUGUGUGUGUGUGUGUGUGUGUGUGUGUGUGUGUGUGUGUCUUUUGCUUCUCCAGAAUGGGAAGUUGU: 2.61 ratio

Block 2
Target: CCND1, cyclin fold, Cln2 fusion (human)
Technique: yeast growth competition, sequencing
Matrix: yeast
Setting: weak parent motif
Relative to: not given
Direction: higher = stronger binding
Endpoint: normalised enrichment score
Starting sequence: SLBP docking peptide (human); ARYKRKLLINDFG
ARYKRKKLINDFG [L7K]: -0.441
ARYKRKLLINDRG [F12R]: -0.346
ARYKRQLLINDFG [K6Q]: 0.726
ARYKRKLLINDTG [F12T]: -0.954
ARYKRKLHINDFG [L8H]: -0.313
ARYKRKLLINDPG [F12P]: -0.118
ARYKRKLLINDVG [F12V]: -0.442
ARYKRKLLINDFI [G13I]: -0.117
ARYKRKLLINHFG [D11H]: -0.234
ARYKRKLLIADFG [N10A]: -0.097
ARYKRKLTINDFG [L8T]: -0.15
ARVKRKLLINDFG [Y3V]: 0.157
ARYKDKLLINDFG [R5D]: 0.0892
ARYKRPLLINDFG [K6P]: 0.503
ARYKRKLLIVDFG [N10V]: -0.127
ARYKQKLLINDFG [R5Q]: -0.321
ARQKRKLLINDFG [Y3Q]: 0.209
ARYKRKLAINDFG [L8A]: 0.108
ARYKRKLLISDFG [N10S]: -0.112
ARYKEKLLINDFG [R5E]: 0.152
ARYKRKLLINDEG [F12E]: -0.0418
ARYKRKLLMNDFG [I9M]: -0.00598
APYKRKLLINDFG [R2P]: 0.189
ARYKRKLLANDFG [I9A]: -0.395
ARKKRKLLINDFG [Y3K]: 0.788

Block 3
Target: Centromere-binding protein 1, full length, His-tagged (CBF1, Saccharomyces cerevisiae, UniProt P17106, residues 1-351)
Sequence of UniProt P17106 (whole entry, looked up): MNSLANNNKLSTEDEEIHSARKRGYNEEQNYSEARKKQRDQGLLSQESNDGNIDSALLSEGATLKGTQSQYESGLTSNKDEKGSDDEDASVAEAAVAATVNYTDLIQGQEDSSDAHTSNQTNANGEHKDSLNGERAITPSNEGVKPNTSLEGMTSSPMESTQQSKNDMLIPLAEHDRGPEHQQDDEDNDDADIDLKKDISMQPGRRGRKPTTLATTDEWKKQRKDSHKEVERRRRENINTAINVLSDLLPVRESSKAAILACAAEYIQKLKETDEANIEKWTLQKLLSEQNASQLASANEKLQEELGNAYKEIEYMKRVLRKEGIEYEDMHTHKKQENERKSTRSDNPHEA
Technique: competition protein-binding microarray
Form: double-stranded DNA, one strand shown
Matrix: in vitro
Concentration: 2 µM
Setting: whole 60-bp probe, lowest competitor level
With: Pho4 competitor, 0.05 µM
Direction: higher = stronger binding
Endpoint: fluorescence intensity
Constant ends, left off below: … GTCTTGATTCGCTTGACGCTGCTG
CATACCCAACCTTGCACTGTGGGTGAAGATATTTGT: 69.1 a.u.
CTGCCGTTGCTTCAGCACATGTTCCAAAAGACCTTG: 156 a.u.
CTAACGAAGGTTTGTCGGGTGGGTGACAAGCCAAGT: 65.8 a.u.
CGGGGTTAAGTTTGATGAGTGGGTGGCTTGCAGCAG: 71.7 a.u.
AAAGCGGTAATTTGCGCTGTGGGTGCAGATATCTAT: 77.9 a.u.
ATGAGCTACATTCACCACGTGTCGGAGACTGGGAAA: 855 a.u.
CTTTCCCGATCTTGTTTTGTGGGTGTAGCACATTTG: 75.4 a.u.
TATACTTTCCCTACGCACATGAAACGCATACCCCAA: 72.5 a.u.
AAATTACTAAGTTGGTATGTGGGTGACGCCGTATGA: 71.5 a.u.
TTACGGTAGAGGGAGCACATGGGCGGAAACAAACCT: 120 a.u.
CGTCCTAGCGATTCGCACGTGTTTTCCATGAGGAAG: 1090 a.u.
TGCGCAACAACTTTTCACGTGGTGTTATGTCTAGAA: 1130 a.u.
AAATTACTAAGTTGCGGAGTGGGTGACGCCGTATGA: 80 a.u.
ATTCTCGTAATTATTCTCGTGATGGCGTTTGCAACC: 286 a.u.
TGCTATTTATAGACGCGCGTGTCGGAATCAGGAAGC: 103 a.u.

Block 4
Target: Histone acetyltransferase KAT6A, both winged helices, GST fusion (KAT6A, Homo sapiens, UniProt Q92794, residues 1-181)
Technique: protein binding microarray
Form: double-stranded DNA, one strand shown
Matrix: in vitro
Concentration: not given
Setting: 8-mer, flanks averaged, mean of 2 arrays, mostly near background
Relative to: not given
Direction: higher = stronger binding
Endpoint: E-score
Residues (chain): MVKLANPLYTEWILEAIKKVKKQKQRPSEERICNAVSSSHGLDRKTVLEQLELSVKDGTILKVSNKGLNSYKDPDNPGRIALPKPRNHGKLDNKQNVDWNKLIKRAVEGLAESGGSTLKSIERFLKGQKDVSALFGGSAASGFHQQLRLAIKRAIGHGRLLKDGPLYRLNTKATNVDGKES
GGAAATAC: -0.087
ATACTAGG: -0.163
CCCGACGA: 0.0979
CGTAAAAC: 0.166
AGGATCGA: -0.0823
GCCCCAAA: 0.0373
CCATGCGA: -0.075
GACCGGCA: 0.263
CCTTTTAC: -0.0858
CTCCTTCA: -0.169
GACCGAGC: 0.0938
AATGATCC: -0.0632
ACTGGAAC: -0.0867
TAAAAACA: 0.0821
AACTCCTT: -0.0226
AAAACCCG: 0.264
CGGTACTA: 0.188
CAGGCTGG: -0.143
ACTGTTCA: -0.0433
GAGAACCA: -0.163
ATGTCGAG: -0.0303

A few entries again (block 1):
CUAGCAGAGAUAACCCUUGAUCCUCCUCCUAACUGCAGUGCUGGGCCUAAAGGAGAUAACAUUUAUGAAUGGAGGUCAACUAUACUUGGUCCACCAGGUUCUGUAUAUGAAGGUGGUGUU: 0.343 ratio
UUGGAAUUAAUAAAGCAGUUGACAUUCACUGUUAGUUACAGCAACAUACUGUGAUUUUUAAUUAGAUAGUAAUUCAGAUUUAUUACUCUAUGAAAUUCUGUCUUUUGACACCAUAGUGCC: 0.725 ratio
GAAGUAUUUGACGCUUUAAAGUUAGACUCUAUGGAAAGCUCGGAGACGUCAUGUCGAGACCUGUCCAGCUCACCCCCUGGGCCUUACGGUCAAGAAAUGUAUGUGUUUCGAUCUGAGGAG: 0.0403 ratio
AAUAUGGCAACUUUGAAAGAUAUCACCAGGAGACUAAAGUCCAUCAAAAACAUCCAGAAAAUUACCAAGUCUAUGAAAAUGGUAGCGGCAGCAAAAUAUGCCCGAGCUGAGAGAGAGCUG: 0.343 ratio
GAUAAACUUGAAGCAGACAGAUCAUGGGAAAAUAUUCCUGUUACUUUCAAAUCUCCUGUUCCCGUUAACUCUGAUGAUAGUCCUCAACAAACUUCAAGGGCAAAGAGUGCUAAAGGGGUU: 0.239 ratio
